Assay results gathered from unrelated publications.
Lines come from different studies, so protocols differ. Values joined by “and” are separate records of one study, mostly repeats; a detail may differ. Numbers after ± are the reported error.

With `CC1(C)Cc2sc(NC(=O)Cc3ccc(S(N)(=O)=O)cc3)c(C#N)c2CN1CC1CCCCC1` the EC50 was 0.0153 µM and 0.013 µM (Dengue virus 2; viral replication; P15-S11 passaged with DMSO).
With `C[C@H](NC(=O)[C@@H](O)c1cc(F)cc(F)c1)C(=O)N[C@@H]1C(=O)N(C)c2ccccc2-c2ccccc21` the EC50 was 0.005 µM (dengue virus 2; viral replication; Huh-7.5.1, luciferase reporter; 48 h).
For `C[C@H]1Cc2c([nH]c3cc(Cl)c(F)cc23)[C@@]2(N1)C(=O)Nc1ccc(Cl)cc12`, the EC50 was 0.0015 ± 0.0002 µM (Plasmodium falciparum; parasite growth; 3D7).
With `O=C(c1cccc(-c2ccc3ncnc(Nc4ccc(OCc5cccc(F)c5)c(Cl)c4)c3c2)c1)N1CCOCC1` the EC50 was 1.1 µM (Plasmodium falciparum; parasite growth, SYBR Green fluorescence; W2, drug-resistant).
With `CCCN(Cc1nnc(-c2ccco2)o1)C(=O)C1CCCN(C(=O)c2ccc(Cl)cc2)C1` (centres unmarked) the EC50 was 0.114 ± 0.047 µM (Plasmodium falciparum; parasite growth; Dd2).
For `c1ccc(COc2ccc(Nc3ncnc4ccc(-c5cccc(N6CCOCC6)c5)cc34)cc2)cc1`, the EC50 was over 15 µM (Plasmodium falciparum; parasite growth, SYBR Green; D6; blood stage).
`CCC1(CC)CC(=O)N(C2CCOc3ccc(C(=O)NC4CC(C)(C)Oc5ccccc54)cc32)C(=N)N1` (centres unmarked) gave an EC50 of 0.0004 ± 0.0002 µM (Plasmodium falciparum; parasite growth; K1).
`O=S(=O)(c1cccc(-c2ccc3ncnc(Nc4ccc(OCc5cccc(F)c5)c(Cl)c4)c3c2)c1)N1CCOCC1` gave an EC50 of 0.29 µM (Plasmodium falciparum; parasite growth, SYBR Green fluorescence; C235 (TM91C235), drug-resistant).
`O=C1NC2(CC2)COc2ncc(F)cc2[C@H]2COCCN2c2ccn3ncc1c3n2`: “alkaline phosphatase activity” 91.4 ± 16.2 U/L (Sprague-Dawley rat, male, serum; oral, 10 mg/kg/day, 4 weeks daily, end of recovery period).
`C[C@H](NC(=O)Cc1cc(F)cc(F)c1)C(=O)N[C@@H]1C(=O)N(C)c2ccccc2-c2ccccc21` gave an EC50 of 0.031 µM (dengue virus 2; viral replication, luciferase reporter virus; Huh-7.5.1).
With `CC(NC(=O)c1cccc(C(c2ccccc2)N2C(=N)NC(C)(C(C)C)CC2=O)c1)c1ccccc1` (centres unmarked) the EC50 was 0.0137 µM (Plasmodium falciparum; parasite growth; CAM3 REV).

Repeated from above:
For `c1ccc(COc2ccc(Nc3ncnc4ccc(-c5cccc(N6CCOCC6)c5)cc34)cc2)cc1`, the EC50 was over 15 µM (Plasmodium falciparum; parasite growth, SYBR Green; D6; blood stage).
